Experimental data pooled from the literature.
Each line is one published result; not all experiments were run side by side. “And” joins repeats or separate records; there may be more than shown. ± marks the error that the study gave.

| Compound | assay | system | conditions | Cmax |
| --- | --- | --- | --- | --- |
| CC(C)[C@H](NC(=O)CNC(=O)[C@H](CCC(N)=O)NC(=O)[C@H](C)N)C(=O)O | – | healthy volunteers, LPS endotoxaemia, plasma | intravenous, 90 mg/kg/h, 2 h infusion, geometric mean, together with: LPS 2 ng/kg | 15700 ng/mL |
| NC(=O)/C=C/c1cccc(S(=O)(=O)Nc2ccccc2)c1 | – | patients with severe liver dysfunction, plasma | intravenous, 400 mg/m^2 belinostat, single 30 min infusion, cycle 1 day -7, mean | 1930 ng/mL |
| Cn1cnc2ccc(Nc3c(F)ccc(NS(=O)(=O)N4CC(F)C4)c3Cl)c(Cl)c2c1=O | phase 1 trial | human, plasma | 50 mg once daily, cycle 1 day 15 | 1900 ng/mL and 1780 ng/mL and 1360 ng/mL |
| Cn1cc(C(N)=O)c(NC2C3CC4CC2CC(OS(=O)(=O)O)(C4)C3)c2ccnc1-2 (stereo not shown) | – | Japanese adults, mild hepatic impairment, plasma | oral, 150 mg single dose | 90.6 ng/mL |
| CONC(=O)/C=C/c1cccc(S(=O)(=O)Nc2ccccc2)c1 | – | patients with severe liver dysfunction, plasma | intravenous, 400 mg/m^2 belinostat, single 30 min infusion, cycle 1 day -7, mean | 3350 ng/mL |
| Cc1ccccc1-c1cc(N2CC[N+](C)([O-])CC2)ncc1N(C)C(=O)C(C)(C)c1cc(C(F)(F)F)cc(C(F)(F)F)c1 | – | healthy volunteers, plasma | oral, dose not given, netupitant-palonosetron fixed-dose combination | 166 ng/mL |
| CC(C)(Sc1ccncc1-c1ccc(C#N)c2ccccc12)C(=O)OC1OC(C(=O)O)C(O)C(O)C1O (stereo not shown) | – | plasma | oral, 15 mg, normal renal function, fasted | 25.7 ng/mL |
| Cc1ccccc1-c1cc(N2CCNCC2)ncc1N(C)C(=O)C(C)(C)c1cc(C(F)(F)F)cc(C(F)(F)F)c1 | – | healthy volunteers, plasma | oral, dose not given, netupitant-palonosetron fixed-dose combination | 44.1 ng/mL |
| CC(=O)N[C@H](CC(=O)O)C(=O)N[C@H](Cc1c[nH]c2ccccc12)C(=O)N[C@H](Cc1ccccc1)C(=O)N[C@H](CCCCN)C(=O)N[C@H](C)C(=O)N[C@H](Cc1ccccc1)C(=O)N[C@H](Cc1ccc(O)cc1)C(=O)N[C@H](CC(=O)O)C(=O)N[C@H](CCCCN)C(=O)N[C@@H](C(=O)N[C@H](C)C(=O)N[C@H](CCC(=O)O)C(=O)N[C@H](CCCCN)C(=O)N[C@H](Cc1ccccc1)C(=O)N[C@H](CCCCN)C(=O)N[C@H](CCC(=O)O)C(=O)N[C@H](C)C(=O)N[C@H](Cc1ccccc1)C(N)=O)C(C)C | – | statin-treated high-risk CHD men, plasma | oral, 300 mg daily, day 13, 0 to 8 h, mean, undetectable set to 0 | 5.38 ng/mL |
| COc1cc(C)c(Cc2ccc(O)cc2)cc1[C@@H]1S[C@H](CO)[C@@H](O)[C@H](O)[C@H]1O | – | Japanese T2DM patients, plasma | 0.5 mg luseogliflozin, day 7, once daily | 1.3 ± 0.196 ng/mL |
| CN1CC[C@@H](NC(=O)Nc2ccc(C#N)cc2)C[C@@H]1c1nc2ccccc2[nH]1 | refers to: total compound | normal hepatic function, plasma | oral, 100 mg single dose, fasted, arithmetic mean | 990 ng/mL |
| CN1CCN(c2cc(-c3ccccc3CO)c(N(C)C(=O)C(C)(C)c3cc(C(F)(F)F)cc(C(F)(F)F)c3)cn2)CC1 | – | cancer patients, plasma | oral, dose not given, netupitant-palonosetron single dose, range of means | 64.4 to 74.3 ng/mL |
| CC[C@@H](C)[C@H]1NC(=O)[C@@H]([C@H](C)O)NC(=O)[C@@H](Cc2c[nH]cn2)NC(=O)CNC(=O)[C@@H](CCCNC(=N)N)NC(=O)CNC(=O)[C@@H](Cc2ccccc2)NC1=O | – | New Zealand white rabbit, female, retina-choroid | ocular, 0.5% eye drop | ~6.7 µM |
| Cn1cc(C(N)=O)c(NC2C3CC4CC2CC(O)(C4)C3)c2ccnc1-2 (stereo not shown) | – | Japanese adults, mild hepatic impairment, plasma | oral, 150 mg single dose | 53.5 ng/mL |
| NC(=O)C1(NC(=O)[C@H](Cc2ccccc2)NC(=O)[C@@H](Cc2c[nH]c3ccccc23)NC(=O)[C@@H](Cc2csc3ccccc23)NC(=O)C2CCNCC2)CCNCC1 | – | healthy male volunteers, plasma | subcutaneous, 100 µg single dose | ~4 ng/mL |
| O=C(O)c1cccc(S(=O)(=O)Nc2ccccc2)c1 | – | patients with mild liver dysfunction, plasma | intravenous, 400 mg/m^2 belinostat, single 30 min infusion, cycle 1 day -7, mean | 2350 ng/mL |
| NC(=O)c1cnc2[nH]ccc2c1NC1C2CC3CC1CC(OS(=O)(=O)O)(C3)C2 (stereo not shown) | – | Japanese adults, normal hepatic function, plasma | oral, 150 mg single dose | 641 ng/mL |
| O=C(O)/C=C/c1cccc(S(=O)(=O)Nc2ccccc2)c1 | – | patients with mild liver dysfunction, plasma | intravenous, 400 mg/m^2 belinostat, single 30 min infusion, cycle 1 day -7, mean | 1800 ng/mL |
| CC(C)(Sc1cc[n+]([O-])cc1-c1ccc(C#N)c2ccccc12)C(=O)OC1OC(C(=O)O)C(O)C(O)C1O (stereo not shown) | – | plasma | oral, 15 mg, moderate renal impairment, fasted | 36.9 ng/mL |

Some of these lines once more:
| Compound | assay | system | conditions | Cmax |
| --- | --- | --- | --- | --- |
| O=C(O)/C=C/c1cccc(S(=O)(=O)Nc2ccccc2)c1 | – | patients with mild liver dysfunction, plasma | intravenous, 400 mg/m^2 belinostat, single 30 min infusion, cycle 1 day -7, mean | 1800 ng/mL |
